Experimental data gathered from unrelated publications.
Lines come from different studies, so protocols differ. Values joined by “and” are separate records of one study, mostly repeats; a detail may differ. Numbers after ± are the reported error.
ALB: Albumin (ALB, Bos taurus, UniProt P02769)
DCPS: m7GpppX diphosphatase (DCPS, Homo sapiens, UniProt Q96C86)
Disks large homolog 4 PDZ3 domain: Disks large homolog 4, PDZ3 domain (Homo sapiens, UniProt P78352)

`O=C(Nc1ccc(C(=O)Nc2ccc(C(=O)Nc3ccc(S(=O)(=O)O)c4cc(S(=O)(=O)O)cc(S(=O)(=O)O)c34)cc2)cc1)Nc1ccc(C(=O)Nc2ccc(C(=O)Nc3ccc(S(=O)(=O)O)c4cc(S(=O)(=O)O)cc(S(=O)(=O)O)c34)cc2)cc1` has a Vmax of 6.13 ± 0.3 mAU/min (Neutrophil elastase (ELANE, Homo sapiens, UniProt P08246); substrate S-1384 hydrolysis; pH 7.4, 37 °C, enzyme 600 nM).
For `COC(=O)c1cnc(-c2cnccn2)cc1C(=O)OC.COC(=O)c1cnc(-c2cnccn2)cc1C(=O)OC.F[P-](F)(F)(F)(F)F.[Ag+]`, the Stern-Volmer constant was 541000 ± 11000 M⁻¹ (ALB; fluorescence quenching; pH 7.4, BSA 5 µM).
With `BP(=O)(OP(=O)([O-])OC[C@H]1O[C@@H](n2c[n+](C)c3c(=O)[nH]c(N)nc32)[C@H](O)[C@@H]1O)OP(=O)([O-])OC[C@H]1O[C@@H](n2c[n+](C)c3c(=O)[nH]c(N)nc32)[C@H](O)[C@@H]1O` the cleavage was 2% (DCPS; hydrolysis by DcpS, substrate, HPLC; 15 µM, 10 min, pH 7.6, 20 °C, enzyme 200 nM).
For `CCN(CC)C(=O)c1ccc(O)c(OC)c1`, the contrast was 29% (Heat shock protein HSP 90-alpha, N-terminal domain (HSP90AA1, Homo sapiens, UniProt P07900); binding, ligand-observed NMR titration; ligand to protein ratio 548).
`[123I]c1ccc2nc(-c3ccc(-n4ccnn4)nc3)cn2c1` has an SUVR of 0.77 ± 0.03 (Amyloid-beta precursor protein, amyloid-beta (APP, Homo sapiens, UniProt P05067); SPECT; healthy controls, Parietal cortex; 120 to 210 min; reference: cerebellum).
`OC(Cc1cc(-c2ccc(C(O)C(F)(F)F)s2)sc1-c1ccc(-c2sc(-c3ccc(C(O)C(F)(F)F)s3)cc2CC(O)C(F)(F)F)s1)C(F)(F)F` (centres unmarked) — result for “time to maximum fluorescence”: 96 h (Microtubule-associated protein tau, aggregated (MAPT, Homo sapiens, UniProt P10636); tau aggregation; sampled 1 to 240 h).
`CNC(=O)c1ccccc1Oc1nc(Nc2cc(OC)c(OC)c(OC)c2)ncc1Br`: “IC50 fold change” ~7 fold (ULK1 (Homo sapiens, UniProt O75385, M92T); inhibitor; reference: wild type).
The specific binding of `[3H]C([3H])([3H])c1cnccc1CN1C[C@@H](c2cc(F)c(F)c(F)c2)CC1=O` is reported as 361 fmol/mg (SV2A (Homo sapiens, UniProt Q7L0J3); radioligand binding, autoradiography; human, post-mortem frontal gray matter; 5 nM).
For `CCNC(=O)[C@@H]1CCNC(=O)[C@H](CCCNC(=O)c2cnccn2)NC(=O)[C@H](Cc2ccccc2)NC(=O)[C@H](CC2CCCCC2)NC(=O)/C=C\C(=O)N1`, “fold increase in potency” read > 150 fold (Proto-oncogene tyrosine-protein kinase Src, SH3-SH2-kinase domain (SRC, Gallus gallus, UniProt P00523); inhibitor; reference: parent macrocycle).
`C[n+]1cn(C2OC(COP(=O)(O)OP(=O)([O-])C(Cl)(Cl)P(=O)(O)O)C(O)C2O)c2nc(N)nc(O)c21` (centres unmarked) has a hydrolysis of 1.1 ± 0.3% (DCPS; substrate, HPLC; 0.04 mM, 60 min, 37 °C).
`O=C(NC[C@@H](Cc1ccc(F)cc1)N1CCC(O)(C(F)(F)F)CC1)C1(c2ccc(Cl)cc2)CCCC1`: “EC50 fold change” ~2 fold (TRPA1 (Homo sapiens, UniProt O75762, V875A); calcium influx, agonist; reference: V875A mutant over wild type).
`Cc1ccccc1-c1cc(N2CCN(CCCN3C(=O)C=CC3=O)CC2)ccc1N(C)C(=O)C(C)(C)c1cc(C(F)(F)F)cc(C(F)(F)F)c1`: “inhibition rate constant” 0.11 ± 0.02 min⁻¹ (TACR1 (Homo sapiens, UniProt P25103); antagonist, BRET; HEK293T; 10 µM, with: substance P, added 5 min before).
The hyperchromism of `CC(=O)[O-].O.O.[O-]c1ccc(Br)cc1C=NCCN1CCOCC1.[Zn+2]` is reported as 48.2% (ALB; UV absorption titration; concentration not given, pH 7.2, 25 °C).
Under “tumour-to-normal tissue ratio”, `O=C([O-])CN(CCN(CC(=O)[O-])Cc1cc(CCC(=O)NCCCCCC(=O)NCCCC[C@H](NC(=O)N[C@@H](CCC(=O)O)C(=O)O)C(=O)O)ccc1O)Cc1cc(CCC(=O)O)ccc1[O-].[68Ga+3]` is recorded as 0.96 ± 0.77 (FOLH1 (Homo sapiens, UniProt Q04609); PET/CT; prostate cancer patients, primary prostate cancer lesions; reference: primary lesions over kidneys).
The selectivity ratio of `C[C@H](NC(=O)[C@H](Cc1ccccc1)NC(=O)c1ccc(C(F)(F)F)cc1)C(=O)N[C@H](C(=O)N[C@@H](CCCC[N+](C)(C)C)C(=O)N[C@@H](CO)C(N)=O)C1CCCC1` is reported as 36 fold (Chromobox protein homolog 8 (Homo sapiens, UniProt Q9HC52); competitive fluorescence polarization; reference: Cbx7 over Chromobox protein homolog 8).
For `CC(C)[C@H](NC(=O)[C@@H]1CCC(=O)NCCC(=O)NCCCC[C@H](NC(=O)[C@H](CCCCN)NC(=O)[C@@H](NC(=O)[C@H](Cc2c[nH]c3ccccc23)NC(=O)[C@@H]2CCCN2C(=O)[C@@H]2CCCN2C(=O)[C@H](Cc2ccccc2)NC(=O)[C@H](CO)NC(=O)CNC(=O)[C@@H](N)CS)C(C)C)C(=O)N[C@@H]([C@@H](C)O)C(=O)N1)C(=O)O`, the kon was 439000 M⁻¹ s⁻¹ (Disks large homolog 4 PDZ3 domain; binding, surface plasmon resonance; pH 7.5, 25 °C).
`CN(C)S(=O)(=O)c1ccc(S(=O)(=O)N2CCC(n3c(=O)[nH]c4ccccc43)CC2)cc1` — result for ATPase activity: “no effect” (ERCC2 (Homo sapiens, UniProt P18074); 100 µM).
Under “binding affinity ratio”, `CCCCCCCCCCCCCC[C@@H](O)[C@@H](O)[C@H](CO[C@H]1O[C@H](CO)[C@H](O)[C@H](O)[C@H]1O)NC(=O)CCCCCCc1ccccc1` is recorded as ~1 orders of magnitude (Cd1d1 (Mus musculus, UniProt P11609); competitive binding; reference: α-GalCer, higher = stronger binding).
`COc1ccc(C(SCC(N)C(=O)O)(c2ccccc2)c2ccccc2)cc1` (centres unmarked) has a binding stoichiometry of 0.7 ± 0.003 (Kinesin-like protein KIF11, motor domain (KIF11, Homo sapiens, UniProt P52732); ITC; concentration not given, 25 °C).
`COc1cc(C(=O)NC2CCC(N3CCN(CC4CCC5(CCCC5)C4)CC3)CC2)c(F)cc1Nc1ncc2c(n1)N(C1CCCC1(F)F)CC(F)(F)C(=O)N2C` (centres unmarked) has an inhibition of 0.49% (IGF1R (Homo sapiens, UniProt P08069); cell-free assay, TR-FRET; 10 µM).
With `CCCC[C@H](NC(=O)[C@@H](NC(=O)[C@@H](N)Cc1ccc(O)cc1)C(C)C)C(=O)NCC(=O)N[C@@H](Cc1c[nH]cn1)C(=O)N[C@@H](Cc1ccccc1)C(=O)N[C@@H](CCCNC(=N)N)C(=O)N[C@@H](Cc1c[nH]c2ccccc12)C(=O)N[C@@H](CC(=O)O)C(=O)N[C@@H](CCCNC(=N)N)C(=O)N[C@@H](Cc1ccccc1)C(=O)NCC(=O)O` the cAMP accumulation was 100% (MC4R (Homo sapiens, UniProt P32245); agonist; HEK293; 10 µM; reference: MT-II).
`CCCCCCCCCCCCCCCC(=O)Nc1ccccc1SSc1ccccc1NC(=O)CCCCCCCCCCCCCCC` — result for “Gibbs free energy change”: -2.89 kcal/mol (ALB; binding, fluorescence quenching; 313 K).
`CNc1ccccc1C(=O)O[C@H]1C[C@H](n2cnc3c(N)ncnc32)O[C@@H]1COP(=O)(O)OP(=O)(O)O`: “dissociation rate constant” 1.59 ± 0.01 s⁻¹ (Unconventional myosin-Va (Gallus gallus, UniProt Q02440, D297C/G292C/I296C/S293C/V295G); stopped-flow FRET; 10 °C, with: MgCl2 10 mM).
For `COc1cccc(OC)c1OCCCn1cc(CCCNc2nc3c(c(=O)[nH]2)[n+](C)cn3C2OC(COP(=O)(O)OP(=O)([O-])OP(=O)(O)OCC3OC(n4cnc5c(=O)[nH]c(N)nc54)C(O)C3O)C(O)C2O)nn1` (centres unmarked), the cap hydrolysis was 7.64% and 7.6% (NUDT16 (Homo sapiens, UniProt Q96DE0); decapping, substrate; capped RNA transcribed by SP6 polymerase; concentration not given, 30 min).
`O=C1CCC(N2Cc3c(NCc4ccccc4)cccc3C2=O)C(=O)N1` (centres unmarked) gave a degradation of 60% (Zinc finger protein Aiolos (Homo sapiens, UniProt Q9UKT9); degrader, western blot; OPM-2; 10 µM, 24 h).
The kcat of `COc1cc(C2CC(=O)Nc3nc(N)[nH]c(=O)c32)ccc1O` (centres unmarked) is reported as 408 ± 60.5 s⁻¹ (uncharacterized protein (Leishmania donovani, UniProt A0A3Q8IA09); glutamine hydrolysis, inhibitor; 100 µM, with: glutamine substrate).
For `O=C(OC1Cc2c(O)cc(O)cc2OC1c1cc(O)c(O)c(O)c1)c1cc(O)c(O)c(O)c1` (single isomer, unassigned; (-)), “number of binding sites” read 1.03 (XDH (Bos taurus, UniProt P80457); fluorescence quenching; concentration not given, 25 °C).
`CC(=O)N[C@@H](CC(N)=O)C(=O)N[C@@H](CCCNC(=N)N)C(=O)N[C@@H](CCCNC(=N)N)C(=O)N[C@@H](CC(N)=O)C(=O)N[C@H](C(=O)N[C@@H](C)C(=O)N[C@@H](CC(N)=O)C(=O)N[C@@H](CCN1C(=O)c2ccc(N(C)C)cc2C1=O)C(=O)N[C@@H](CCCNC(=N)N)C(=O)N[C@H](C(=O)N[C@@H](CCCNC(=N)N)C(=O)N1CCC[C@H]1C(=O)N[C@@H](CCCNC(=N)N)C(=O)O)[C@@H](C)O)[C@@H](C)O` — result for “relative fluorescence increase”: 1.4 (Disks large homolog 4 PDZ3 domain; PDZ domain binding, fluorescence emission intensity; PSD-95 PDZ3 domain; 4-DMAP-Dab at position -5; reference: probe without PDZ domain).
The maximal inhibition of `CC(C)CCC[C@@H](C)[C@H]1CC[C@H]2[C@@H]3CC=C4C[C@@H](OS(=O)(=O)O)CC[C@]4(C)[C@H]3CC[C@]12C` is reported as 83.3 ± 10.2% (Prothrombin (F2, Homo sapiens, UniProt P00734); enzyme activity, inhibitor; 0 (unit not given), pH 7.4, 37 °C, no Tween, with: Spectrozyme TH).
`CCCCOc1ccc(C(=O)OCCN2CC=CCC2)cc1` has a dissociation half-time of 0.4 ± 0.1 h (CHRM4 (Homo sapiens, UniProt P08173); recovery of [3H]NMS binding after washing; membranes; 100 µM).
For `CC(=O)N[C@H](CCCNC(=N)N)C(=O)N[C@@H](Cc1ccc(O)cc1)C(=O)N[C@@H](CCCNC(=N)NC(=O)NCCCCN)C(=O)N[C@@H](CC(C)C)C(=O)N[C@@H](CCCNC(=N)N)C(=O)N[C@@H](Cc1ccc(O)cc1)C(N)=O`, the intrinsic activity was 0.63 (NPY4R (Homo sapiens, UniProt P50391); calcium mobilization, agonist, aequorin; CHO-hY4-Gqi5-mtAEQ; concentration not given, unit not given; reference: 1 µM human pancreatic polypeptide).
With `NS(=O)(=O)c1ccc(N2N=C(C(F)(F)F)CC2c2ccc(F)cc2F)cc1` (centres unmarked) the Hill coefficient was 4.3 (Cyclooxygenase-2 (Canis lupus familiaris, UniProt Q8SPQ9); PGE2 formation, inhibitor; dog whole blood; with: LPS).
For `O=P(O)(O)O[C@@H]1[C@@H](O)[C@@H](O[C@@H]2COC[C@@H]2OP(=O)(O)O)O[C@H](CO)[C@H]1OP(=O)(O)O`, the delta pKd was 1.63 ± 0.1 (Inositol 1,4,5-trisphosphate-gated calcium channel ITPR1, N-terminal region (Itpr1, Rattus norvegicus, UniProt P29994, del318-332/R504Q); [3H]IP3 competition binding; N-terminal fragment; Tris-EDTA medium, unit not given; reference: R504Q minus wild type).
With `CCC(C)C(N)C(=O)OC(C)OC(=O)C1=CC(N=C(N)N)C(NC(C)=O)C(C(O)C(O)CO)O1` (mixture of isomers) the IC50 ratio was ~3 fold (SLC15A1 (Homo sapiens, UniProt P46059); inhibitor; Caco-2; with: [3H]Gly-Sar; reference: Zan-L-Val).
`CNc1nc2c(c(=O)[nH]1)[n+](C)cn2[C@@H]1O[C@H](COP(=O)(O)OP(=O)(O)OP(=O)(O)OC[C@H]2O[C@@H](n3cnc4c(=O)[nH]c(N)nc43)[C@H](O)[C@@H]2O)[C@@H](O)[C@H]1O` — result for “initial hydrolysis rate”: 1.91 ± 0.18 µM/min (DCPS; decapping, substrate, HPLC; concentration not given).

Excerpt of the above:
`C[n+]1cn(C2OC(COP(=O)(O)OP(=O)([O-])C(Cl)(Cl)P(=O)(O)O)C(O)C2O)c2nc(N)nc(O)c21` (centres unmarked) has a hydrolysis of 1.1 ± 0.3% (DCPS; substrate, HPLC; 0.04 mM, 60 min, 37 °C).
`O=C(NC[C@@H](Cc1ccc(F)cc1)N1CCC(O)(C(F)(F)F)CC1)C1(c2ccc(Cl)cc2)CCCC1`: “EC50 fold change” ~2 fold (TRPA1 (Homo sapiens, UniProt O75762, V875A); calcium influx, agonist; reference: V875A mutant over wild type).
